Results gathered from unrelated publications.
Parts stem from different laboratories: compare values within a part only.

Study 1
Target: PABPC1L2, full length, GST fusion (mouse, UniProt A0ABA7IW68)
Technique: RNAcompete
Molecule type: RNA
Medium: in vitro
Tested at: 20 nM
Setting: 7-mer, probes averaged, single round
Relative to: mean of 7-mers
Direction: higher = stronger binding
Endpoint: 7-mer Z-score
Residues (chain): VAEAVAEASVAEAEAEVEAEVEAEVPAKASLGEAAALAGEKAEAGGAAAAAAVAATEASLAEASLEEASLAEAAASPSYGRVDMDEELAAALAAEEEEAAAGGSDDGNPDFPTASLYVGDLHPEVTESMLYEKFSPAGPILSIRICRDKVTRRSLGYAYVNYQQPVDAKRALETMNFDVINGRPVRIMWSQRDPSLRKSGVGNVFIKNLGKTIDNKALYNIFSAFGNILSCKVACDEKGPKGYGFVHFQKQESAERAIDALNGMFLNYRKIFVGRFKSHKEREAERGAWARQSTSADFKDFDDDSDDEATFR
GUUAAUU: -0.204
UGGAUGU: -0.0264
ACCACCG: 0.0334
UGUAGAG: -0.153
GCCCGAA: 0.258
UUCCGGC: -0.383
AAAGCGU: 0.78
GCGCGAA: 0.00979

Study 2
Target: Prothrombin, mature alpha-thrombin (F2, Homo sapiens, UniProt P00734)
Technique: aptamer microarray, sandwich
Molecule type: DNA with 2'F-ANA
Medium: in vitro
Tested at: 200 nM
Setting: whole 15-mer aptamer, many near background
With: Cy3 exosite-II aptamer, 400 nM
Direction: higher = stronger binding
Endpoint: mean fluorescence intensity
Strand: GGTTGGTGTGGTTGG
2'F-ANA at 2 3 6 7 8 10 11 13 14 15: 217 a.u.
2'F-ANA at 3 4 5: 104 a.u.
2'F-ANA at 6 15: 486 a.u.
2'F-ANA at 1 4 9 10 11 12: 65.7 a.u.
2'F-ANA at 2 3 4 5 11: 80.3 a.u.
2'F-ANA at 3 4 5 6 9 11 12 14: 53.3 a.u.
2'F-ANA at 2 3 4 5 8 9 10 12 13 15: 49.6 a.u.
2'F-ANA at 3 5 6 8 9 11 12 14: 59.7 a.u.

Study 3
Target: TAR DNA-binding protein 43, full length, His tag (TARDBP, Homo sapiens, UniProt Q13148, residues 1-414)
Technique: RNA Bind-n-Seq
Molecule type: RNA
Medium: in vitro
Tested at: 20 nM
Setting: 6-mer, flanks averaged, single round
With: 150 mM KCl
Relative to: input library
Direction: higher = stronger binding
Endpoint: 6-mer enrichment (R)
ACGACA: 0.661
AUGCAA: 0.702
CAACGC: 0.667
GGGUUA: 1.66
CCGGAA: 0.839
AGUUCA: 0.579
ACACAG: 0.76
CCCUCA: 0.622

Mixed results
ETIFTVLAL  binding (HLA class I histocompatibility antigen, A alpha chain, allele A*80:01 (Homo sapiens, UniProt P04439); peptide-MHC binding; peptide; concentration not given): inactive

Repeated from above (study 1):
UGUAGAG: -0.153
GCCCGAA: 0.258
